Published values of several laboratories.
Parts stem from different laboratories: compare values within a part only.

Sample 1
Target: Histone acetyltransferase KAT6A, winged helix 2, GST fusion (KAT6A, Homo sapiens, UniProt Q92794, residues 85-181)
Technique: protein binding microarray
Molecule type: double-stranded DNA, one strand shown
Matrix: in vitro
Concentration: not given
Setting: 8-mer, flanks averaged, mean of 2 arrays, mostly near background
Baseline: not given
Direction: higher = stronger binding
Measurement: E-score
Construct (chain): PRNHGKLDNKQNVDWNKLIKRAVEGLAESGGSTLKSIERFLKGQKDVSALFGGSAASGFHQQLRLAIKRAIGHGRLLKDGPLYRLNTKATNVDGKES
CAACAGTC: -0.134
CCTGCGTC: 0.152
CGGTAACC: 0.0689
AACTAATC: -0.00161
AACGCCTT: -0.118
GGGTCTCA: -0.23
TAAAGAGA: -0.127
GACGATGC: 0.0359
GATATATA: 0.116
AACACGGA: 0.0612
CTTTTCAA: 0.0912

Sample 2
Target: Interferon regulatory factor 7, full length, phosphomimetic (IRF7, Homo sapiens, UniProt Q92985, residues 1-503, S101K/S471D/S472D/S475D/S476D/S477D/S483D/S484D/S487D)
Technique: protein-binding microarray
Molecule type: double-stranded DNA, one strand shown
Matrix: in vitro
Concentration: 250 nM
Setting: 60-bp whole probe
Added: salmon DNA 0.4 mg/ml
Baseline: random background probes
Direction: higher = stronger binding
Measurement: log fluorescence
Constant ends, left off below: GCCTAGCAC … GTCTTGATTCGCTTGACGCTGCTG
Residues (chain): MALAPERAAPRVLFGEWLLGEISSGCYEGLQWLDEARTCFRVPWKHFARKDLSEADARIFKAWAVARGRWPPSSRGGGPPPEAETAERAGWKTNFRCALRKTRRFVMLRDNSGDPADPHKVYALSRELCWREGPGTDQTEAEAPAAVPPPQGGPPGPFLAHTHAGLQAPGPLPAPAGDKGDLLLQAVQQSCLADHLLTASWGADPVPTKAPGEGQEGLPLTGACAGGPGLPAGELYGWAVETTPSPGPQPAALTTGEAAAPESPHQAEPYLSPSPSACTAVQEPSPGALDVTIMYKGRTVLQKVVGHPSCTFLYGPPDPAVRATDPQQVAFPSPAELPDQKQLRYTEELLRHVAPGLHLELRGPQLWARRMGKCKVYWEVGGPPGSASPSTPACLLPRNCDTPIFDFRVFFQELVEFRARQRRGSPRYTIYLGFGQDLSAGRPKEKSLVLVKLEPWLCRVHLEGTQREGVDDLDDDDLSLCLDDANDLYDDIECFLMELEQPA
GACGATATCGGGCATCGAGACGTGCTA: -0.469 z-score
TCAGTTTTCTTTTCATTACTGTGCTAG: 4.56 z-score
GACGTTATCAGTTTCGAGACGTGCTAG: 3.82 z-score
GTCGGTATCCTTCTCCTGACGTGCTAG: 0.635 z-score
AACGGTTTCGGTTCCGGGACGTGCTAG: 12.6 z-score
TTAGGAATCGGTATCGGTTAGTGCTAG: 2.24 z-score

Sample 3
Target: Sal-like protein 4, full length isoform B (SALL4, Homo sapiens, UniProt Q9UJQ4-2, residues 1-616)
Technique: universal PBM
Molecule type: double-stranded DNA, one strand shown
Matrix: in vitro
Concentration: not given
Setting: 8-mer, flanks averaged, mean of replicates
Direction: higher = stronger binding
Measurement: E-score
AGCTCTGC: -0.258
CAATTTAG: 0.152
GTGAGTGA: -0.0975
TCCATAGA: 0.089
CACAGACG: -0.116
ACGCAACT: -0.0944

Further values, each from its own experiment
PhoQ, residues 284 288 289 292 302 303 TNSAEL — fold induction (PhoP, residues 12 14 15 18 19 LYFRQ (Escherichia coli, UniProt P23836); Sort-seq, measured: YFP reporter; E. coli; PhoQ-PhoP variant library, added: 10 µM Mg2+; baseline: high Mg2+ state, higher = stronger signaling): 15

Some of these lines once more (sample 3):
ACGCAACT: -0.0944
TCCATAGA: 0.089
CAATTTAG: 0.152
CACAGACG: -0.116
